{"data": "Assay results from different studies", "note": "A part holds a random share of what one study measured."}
{"data": "Sample 1", "target": "Interferon regulatory factor 5, full length, phosphomimetic (IRF5, Homo sapiens, UniProt Q13568-2, residues 1-514, S451D/S453D/S456D/S462D)", "technique": "protein-binding microarray", "molecule type": "double-stranded DNA, one strand shown", "medium": "in vitro", "concentration": "940 nM top", "setting": "60-bp whole probe", "added": "salmon DNA 0.4 mg/ml", "baseline": "random background probes", "direction": "higher = stronger binding", "all sequences stand within": "GCCTAGCAC … GTCTTGATTCGCTTGACGCTGCTG"}
{"Sequence": "TTAGGTATCGGCACTGGGTTAGTGCTA", "fitted relative affinity [z-score]": 4.13}
{"Sequence": "CCCTATTTAAGGCTAGGCACGTGCTAG", "fitted relative affinity [z-score]": -0.0629}
{"Sequence": "TCAAATTTTGTCATCTAACTGTGCTAG", "fitted relative affinity [z-score]": -0.167}
{"Sequence": "GACGGACCGGACTTTCGGGACGTGCTA", "fitted relative affinity [z-score]": 0.337}
{"Sequence": "TTAGGTATCCTTCCCCTTTAGTGCTAG", "fitted relative affinity [z-score]": 0.716}
{"Sequence": "GACGGACTGGACTATCGGGACGTGCTA", "fitted relative affinity [z-score]": -0.424}
{"data": "Sample 2", "target": "Histone acetyltransferase KAT6A, both winged helices, GST fusion (KAT6A, Homo sapiens, UniProt Q92794, residues 1-181)", "technique": "protein binding microarray", "molecule type": "double-stranded DNA, one strand shown", "medium": "in vitro", "concentration": "not given", "setting": "8-mer, flanks averaged, mean of 2 arrays, mostly near background", "baseline": "not given", "direction": "higher = stronger binding", "Residues (chain)": "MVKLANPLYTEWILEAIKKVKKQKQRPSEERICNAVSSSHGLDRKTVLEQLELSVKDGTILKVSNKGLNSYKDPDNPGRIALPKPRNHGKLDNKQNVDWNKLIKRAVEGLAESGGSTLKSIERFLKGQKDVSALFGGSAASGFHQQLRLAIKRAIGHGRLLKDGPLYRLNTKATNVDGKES"}
{"Sequence": "CTTTTTTA", "E-score": -0.0905}
{"Sequence": "CGGTAAAC", "E-score": 0.172}
{"Sequence": "GTTCAATA", "E-score": -0.0572}
{"Sequence": "CCACAAAC", "E-score": -0.0582}
{"Sequence": "TCTGTTAA", "E-score": -0.0294}
{"Sequence": "GAAAAGTA", "E-score": -0.177}
{"data": "Sample 3", "target": "Transcription factor Sp1 (SP1, Homo sapiens, UniProt P08047, residues 1-785, full length assumed)", "technique": "protein-binding microarray", "molecule type": "double-stranded DNA, one strand shown", "medium": "in vitro", "concentration": "not given", "setting": "k-mer, scored over probes, only values ≥0.25", "direction": "higher = stronger binding", "UniProt P08047, sequence (whole entry, looked up)": "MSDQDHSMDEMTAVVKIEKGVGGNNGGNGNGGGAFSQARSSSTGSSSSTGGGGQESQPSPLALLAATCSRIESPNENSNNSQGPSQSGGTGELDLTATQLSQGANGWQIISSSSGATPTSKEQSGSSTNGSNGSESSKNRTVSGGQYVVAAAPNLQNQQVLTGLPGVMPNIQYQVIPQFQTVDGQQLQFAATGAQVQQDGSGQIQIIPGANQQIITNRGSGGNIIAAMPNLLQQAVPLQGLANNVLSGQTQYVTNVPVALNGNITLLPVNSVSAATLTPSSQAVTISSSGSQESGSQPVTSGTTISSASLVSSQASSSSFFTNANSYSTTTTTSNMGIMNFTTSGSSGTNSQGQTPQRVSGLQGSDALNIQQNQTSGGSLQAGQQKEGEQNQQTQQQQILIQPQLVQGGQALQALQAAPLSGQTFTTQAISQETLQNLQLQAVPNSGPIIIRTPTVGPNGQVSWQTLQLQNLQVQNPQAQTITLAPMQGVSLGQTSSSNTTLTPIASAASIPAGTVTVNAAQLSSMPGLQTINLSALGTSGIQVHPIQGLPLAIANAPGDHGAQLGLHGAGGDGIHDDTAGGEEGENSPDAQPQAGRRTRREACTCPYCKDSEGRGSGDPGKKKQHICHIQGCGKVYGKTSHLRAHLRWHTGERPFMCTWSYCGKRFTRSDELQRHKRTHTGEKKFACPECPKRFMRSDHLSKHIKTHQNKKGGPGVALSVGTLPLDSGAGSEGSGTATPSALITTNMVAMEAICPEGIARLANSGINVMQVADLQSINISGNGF"}
{"Sequence": "CACCCCAA", "E-score": 0.291}
{"Sequence": "AATGGGGT", "E-score": 0.265}
{"Sequence": "CCCCTCGC", "E-score": 0.266}
{"Sequence": "CCCCTCTA", "E-score": 0.348}
{"Sequence": "CCCACACA", "E-score": 0.312}
{"data": "Other studies, line by line"}
{"Substance": "PhoQ, residues 284 288 289 292 302 303 SLANIV", "target": "PhoP, residues 12 14 15 18 19 AWHSL (Escherichia coli, UniProt P23836)", "test": "Sort-seq, measured: YFP reporter", "system": "E. coli", "setting": "PhoQ-PhoP variant library, added: 10 µM Mg2+", "how to read": "baseline: high Mg2+ state, higher = stronger signaling", "quantity": "fold induction", "value": 5.8}
{"note": "Repeated from above (sample 3):"}
{"Sequence": "CCCACACA", "E-score": 0.312}
{"Sequence": "AATGGGGT", "E-score": 0.265}
{"Sequence": "CCCCTCTA", "E-score": 0.348}
